Results gathered from unrelated publications.
Lines come from different studies, so protocols differ. “And” joins repeats or separate records; there may be more than shown. ± gives the spread as reported.
GBA1 R534H: Lysosomal acid glucosylceramidase (GBA1, Homo sapiens, UniProt P04062, R534H)
Sequence of UniProt P04062 (whole entry, unmodified, looked up): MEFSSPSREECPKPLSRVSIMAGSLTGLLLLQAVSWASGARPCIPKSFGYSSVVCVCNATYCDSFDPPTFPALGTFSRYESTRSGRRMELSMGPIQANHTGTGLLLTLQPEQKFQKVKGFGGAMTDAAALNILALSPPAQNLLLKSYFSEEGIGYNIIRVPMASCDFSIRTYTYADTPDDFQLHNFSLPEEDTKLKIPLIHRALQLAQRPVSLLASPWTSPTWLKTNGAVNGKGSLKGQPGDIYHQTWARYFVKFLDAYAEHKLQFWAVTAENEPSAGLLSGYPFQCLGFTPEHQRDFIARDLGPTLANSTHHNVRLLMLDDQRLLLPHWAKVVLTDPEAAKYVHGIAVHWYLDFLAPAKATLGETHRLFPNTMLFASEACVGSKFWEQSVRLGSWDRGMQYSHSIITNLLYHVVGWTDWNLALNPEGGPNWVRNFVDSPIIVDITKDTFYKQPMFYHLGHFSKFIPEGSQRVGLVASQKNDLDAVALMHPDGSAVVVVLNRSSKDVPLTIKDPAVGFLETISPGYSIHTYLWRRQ

CN(C)Cc1nc(Nc2ccc(-c3cnc4cc(F)ccn34)c3c2C(=O)NC3)ccc1C1CCOC1 (centres unmarked) has an EC50 of 16 nM (human CD4 T cells; cytokine induction, refers to: GM-CSF; together with: anti-CD3/CD28).
The IC50 of CC(C)c1ccc(N(C)c2ccc3c(c2)OCC[C@H]3CNc2cnccc2C(=O)O)cc1 is reported as over 1000 nM (IMR-90 normal fibroblast; cell proliferation; 168 h).
The fold change of N#Cc1cccc(/C=C/C(=O)c2ccc(O)cc2)c1 is reported as 99.5 (U-87 MG; refers to: HSPH1; concentration not given; relative to: untreated).
CCOc1cncc(-c2ccc(NC(=O)C3(c4ccnc(NS(=O)(=O)C5CC5)n4)CCOCC3)nc2)n1 gave an IC50 of 58 nM (lung cancer; cell viability, CellTiter-Glo; DMSO 0.1%; 72 h, line code 526).
For C=CC(=O)N1[C@H](c2ccc3c(c2)OCO3)c2[nH]c3ccccc3c2C[C@@H]1C(=O)NC1CC1, the neuron degeneration was 46.3% and 42.1% (rat DRG neurons; 0.3704 µM, 48 h, together with: vincristine 40 nM).
For COc1ccccc1-c1ccncc1C(=O)Nc1nnc(OCc2ccc(Cl)cc2)s1, the colony count was 81.5 and 79.5 and 66.5 (DLD-1 parental; 0.06 µM, mean of replicates).
COc1cc(N2CCN(C(=O)C3CCCN3)CC2)ccc1Nc1ncc(Cl)c(Nc2ccccc2P(C)(C)=O)n1 (centres unmarked) has a viability of 21% (NCI-H3122; CCK-8; 250 nM, 48 h).
With CN(C)CCN1CCN(c2ccc3nc(-c4ccc5nc(-c6ccc(C(F)(F)F)cc6)[nH]c5c4)[nH]c3c2)CC1 the growth percent was 78.5% (786-0; cell growth, NCI-60 SRB; 10 µM, 48 h).
C=C1C(=O)OC2C1CCC(C)(O)C13C=CC(C)(C21)C1(C3)C(=O)OC2C3C(C)C(=O)CC3C(=C)CC(OC(C)=O)C21 (centres unmarked) — result for “total protein level”: “no effect” (AML12; Western blot, refers to: FoxO1; concentration not given, together with: palmitate/oleate).
For [BH3-][P+]1(c2ccccc2)CCCCC1, the IL-6 level was 2.4 ± 0.09 pg/mL (PC-3; ELISA; IC50, 72 h).
The IC50 of OC[C@H]1[C@@H](O)[C@H](O)[C@@H](O)CN1CCCCCOCc1ccc(-c2ccccc2)c(C(F)(F)F)c1 is reported as 6000 nM (GBA1 R534H; inhibitor, 4MU-β-D-glucopyranoside; together with: 4MU-β-D-glucopyranoside).
For COC(=O)c1cc(NC2=NC(=O)C(=Cc3ccc(N(C)C)cc3)S2)ccc1OC(C)=O, the fold change was 0.26 (MCF7; refers to: RNF168 mRNA; 0.81 µM (IC50), 24 h; relative to: DMSO).
With COC(=O)[C@@]1(C)C=C(C(=O)Nc2cccc(C(=O)Nc3ccc(Nc4nccc(-c5cccnc5)n4)c(C)c3)c2)C(=O)CC1 the reporter activity was 0.179 and 0.188 (HEK293 AP1 reporter cells; AP-1 reporter gene, inhibitor; 3 µM, 6 h, unit not given, together with: PMA; relative to: PMA alone).
With CCN(C(=O)c1cc(F)ccc1Oc1nncnc1N1CCC2(C1)CN([C@H](CCCN(C)CCOC)C(C)C)C2)C(C)C the GI50 was over 10000 nM (Panc1005; cell growth or viability; 7 days).
Cc1ncsc1-c1ccc(C(C)NC(=O)C2CC(O)CN2C(=O)C(NC(=O)CCCCCCCCCCN2CCCC(Nc3ncc(Cl)c(Nc4ccccc4S(=O)(=O)C(C)C)n3)C2)C(C)(C)C)cc1 (centres unmarked) — result for “log2 fold change”: -2.64 (22Rv1; RNA-seq, refers to: TNFSF4 mRNA; concentration not given; relative to: DMSO).
With CC[C@H]1CN([C@@H](CC)c2ccc(C(F)(F)F)cc2)[C@H](CC)CN1c1nc(=O)n(C)c2ccc(C#N)nc12 the Hill slope was 0.308 (human CD4 T cells; phosphoproteomics, refers to: POLE4 S9; 60 min, C2_P1 precursor).
For CCc1c(C)c2ccc(OC(C)C)c(C)c2oc1=O, the viability was 2.8% (PC-3; cell growth or viability, MTT; 250 µg/mL).
With CCCCN1C(=O)c2cccc3c(NCCCCCCN4CCOCC4)ccc(c23)C1=O the Pearson's coefficient was 0.19 ± 0.04 (BHK-21; confocal colocalization; 0.2 µM, together with: ER-Tracker Red 0.3 µM).
For OC[C@@H]1[C@@H](O)[C@H](O)[C@@H](O)CN1CCCC(F)(F)COCc1ccc(-c2ccccc2)cc1, the IC50 was 300 nM (GBA1 R534H; inhibitor, 4MU-β-D-glucopyranoside; together with: 4MU-β-D-glucopyranoside).
For Cc1cc(Cl)cc(-c2ccnc3cc(CN4C(=O)C5C(C4=O)C5(C)C)sc23)c1C[C@@H]1CNCCO1 (some centres unmarked), the viable cells was 33.1% and 47.4% and 42.6% (CHP-212 parental; annexin V/PI flow cytometry; 1 µM, 48 h).
For O=C(N1CCCC1)n1cc(-c2ccc(-c3ccccc3)cc2)nn1, “SILAC ratio per peptide” read 0.81 and 0.97 and 1.05 and 1.25 and 0.82 (mouse T cells; N-terminal labelling proteomics, refers to: Efhd2 N-terminal peptide; 0.001 µM, 6 h; relative to: DMSO).
Under “log2 fold change”, CN1CCCNC(=O)c2cccc(c2)C(=O)NCCCN(C)CCCNc2cccc3c2C(=O)c2cccc(c2C3=O)NCCC1 is recorded as -1.75 (SAS; RNA-Seq, refers to: DDX42 mRNA; 1 µM, 6 h; relative to: untreated cells).
CN1CCN(C(=O)c2ccc(-c3cc4c(N5CCC[C@H](C(=O)NCc6ccc(OC(F)(F)F)cc6)C5)ncnc4[nH]3)cc2)CC1 has an inhibition of 88.8% (KARPAS-299; cell growth or viability, MTT; 5 µg/mL, 72 h).
For CNS(=O)(=O)Nc1nccc(Cc2c(C)c3ccc(Oc4ncccc4F)cc3oc2=O)c1F, the IC50 was 422 nM (HCC4006; cell viability; 7 days).
CCC(=CCc1c(O)cc2c(c1O)C(=O)CC(c1ccc(O)cc1)O2)CC (centres unmarked) — result for “early apoptotic cells”: at most 0.29% (HeLa; annexin V/PI staining; range over 12 to 48 µM).
For O=C(CNc1ccc2ccccc2c1)N/N=C/c1ccc([N+](=O)[O-])o1, the relative translation was 104% (Trypanosoma cruzi; reporter mRNA translation, inhibitor, refers to: capped polyadenylated Renilla luciferase mRNA; cell-free extract; concentration not given; relative to: control RNA).
For CO[C@@H]1[C@@H](OC(N)=O)[C@@H](O)[C@H](Oc2ccc3c(O)c(NC(=O)c4ccc(O)c(CC=C(C)C)c4)c(=O)oc3c2C)OC1(C)C, the colony survival was 84.1% (HCT-116 BRCA2 wild-type; 75 µM, replicate B; relative to: untreated).
With CCCCCCc1cccc([C@H](O)C[C@H](CO)NC(=O)CCCCCCCCCCBr)c1 the ceramide level was 23800 pmol/sample and 23200 pmol/sample and 20400 pmol/sample (HeLa; CERT activity, HPLC-MS/MS lipidomics, refers to: ceramide 16; 1 µM, 24 h, not cell-number normalised).
With O=C(C[Se]C(=O)c1ccccc1Nc1cccc(C(F)(F)F)c1)Nc1cccc(C(F)(F)F)c1 the GI50 was 1760 nM (NCI60 CNS cancer panel; five-dose screen).
Under “log fold change”, COC1=C2CC(C)CC(OC)C(O)C(C)C=C(C)C(OC(N)=O)C(OC)C=CC=C(C)C(=O)NC(=CC1=O)C2=O (centres unmarked) is recorded as -0.529 (Rh30; ChIP-seq, refers to: H3K36me3 peak; concentration not given, CENPU TTS chr4:185611800-185620399; relative to: untreated control).
CCN(CC)CCNC(=S)Nc1ccc2nc(N3CCN(CC)CC3)cc(C)c2c1 has a GFP-positive cells of 6.28% (U2OS SSA-GFP reporter; single-strand annealing, flow cytometry; 10 µM).
With COc1cc(C(=O)N2CC[C@@H](O)[C@@H](N)C2)cc2nc(-c3cc4cccnc4n3CC3CC3)n(C)c12 the inhibition was 28.2% and 24.5% and 50.9% and 54% (human neutrophils; protein citrullination, inhibitor, flow cytometry, refers to: citrullinated proteins; 10 µM, together with: ionomycin).
CCN(CC)CC(=O)Nc1cccc(-n2cc(-c3ccc4ccc(-c5cn(-c6cccc(NC(=O)CN(CC)CC)c6)nn5)cc4c3)nn2)c1 has a fold regulation of -1.31 (RCC4; PCR angiogenesis array, refers to: CXCL5; 5 x IC50, 4 h, normoxia; relative to: untreated).
Cc1cc(NC2CCN(C)CC2)ccc1-c1cc2c(N3CCC[C@H](C(=O)NCc4ccc(OC(F)(F)F)cc4)C3)ncnc2[nH]1 gave an inhibition of 39.4% (KARPAS-299; cell growth or viability, MTT; 0.00032 µg/mL, 72 h).
Under “log2 fold change”, Cn1ncc2cc(-c3cncc(Cl)c3N3CCC4(CCNC4=O)CC3)ccc21 is recorded as 2.3 (LS174T; gene expression, microarray, refers to: ARRDC3 mRNA; concentration not given, 24 h; relative to: untreated cells).
With Cc1ccc(-n2cc(CSc3nc4ccccc4n3Cc3cn(-c4ccc(C)cc4)nn3)nn2)cc1 the viability was 10.7% (Caco-2; MTT; 250 ppm).
For C=C1C(=O)OC2C1CCC(C)(O)C13C=CC(C)(C21)C1(C3)C(=O)OC2C3C(C)=CC(=O)C3=C(C)CCC21 (centres unmarked), the maximum inhibition was 71.8 ± 5.42% (AML12 mouse hepatocytes; lipid accumulation, Nile Red staining; maximum safe concentration, 24 h, together with: palmitic acid/oleic acid).
With CC(NS(=O)(=O)c1ccc(CCC(=O)N2CCN(C)CC2)cc1)c1ccccc1 (centres unmarked) the relative translation was 122% (Trypanosoma cruzi; reporter mRNA translation, inhibitor, refers to: capped polyadenylated Renilla luciferase mRNA; cell-free extract; concentration not given; relative to: control RNA).

Excerpt of the above:
For COc1ccccc1-c1ccncc1C(=O)Nc1nnc(OCc2ccc(Cl)cc2)s1, the colony count was 81.5 and 79.5 and 66.5 (DLD-1 parental; 0.06 µM, mean of replicates).
COc1cc(N2CCN(C(=O)C3CCCN3)CC2)ccc1Nc1ncc(Cl)c(Nc2ccccc2P(C)(C)=O)n1 (centres unmarked) has a viability of 21% (NCI-H3122; CCK-8; 250 nM, 48 h).
With CN(C)CCN1CCN(c2ccc3nc(-c4ccc5nc(-c6ccc(C(F)(F)F)cc6)[nH]c5c4)[nH]c3c2)CC1 the growth percent was 78.5% (786-0; cell growth, NCI-60 SRB; 10 µM, 48 h).
C=C1C(=O)OC2C1CCC(C)(O)C13C=CC(C)(C21)C1(C3)C(=O)OC2C3C(C)C(=O)CC3C(=C)CC(OC(C)=O)C21 (centres unmarked) — result for “total protein level”: “no effect” (AML12; Western blot, refers to: FoxO1; concentration not given, together with: palmitate/oleate).
For [BH3-][P+]1(c2ccccc2)CCCCC1, the IL-6 level was 2.4 ± 0.09 pg/mL (PC-3; ELISA; IC50, 72 h).
